Published values collected from several papers.
Lines come from different studies, so protocols differ.
TDP1: Tyrosyl-DNA phosphodiesterase 1 (TDP1, Homo sapiens, UniProt Q9NUW8)
UniProt Q9NUW8, sequence (whole entry, looked up): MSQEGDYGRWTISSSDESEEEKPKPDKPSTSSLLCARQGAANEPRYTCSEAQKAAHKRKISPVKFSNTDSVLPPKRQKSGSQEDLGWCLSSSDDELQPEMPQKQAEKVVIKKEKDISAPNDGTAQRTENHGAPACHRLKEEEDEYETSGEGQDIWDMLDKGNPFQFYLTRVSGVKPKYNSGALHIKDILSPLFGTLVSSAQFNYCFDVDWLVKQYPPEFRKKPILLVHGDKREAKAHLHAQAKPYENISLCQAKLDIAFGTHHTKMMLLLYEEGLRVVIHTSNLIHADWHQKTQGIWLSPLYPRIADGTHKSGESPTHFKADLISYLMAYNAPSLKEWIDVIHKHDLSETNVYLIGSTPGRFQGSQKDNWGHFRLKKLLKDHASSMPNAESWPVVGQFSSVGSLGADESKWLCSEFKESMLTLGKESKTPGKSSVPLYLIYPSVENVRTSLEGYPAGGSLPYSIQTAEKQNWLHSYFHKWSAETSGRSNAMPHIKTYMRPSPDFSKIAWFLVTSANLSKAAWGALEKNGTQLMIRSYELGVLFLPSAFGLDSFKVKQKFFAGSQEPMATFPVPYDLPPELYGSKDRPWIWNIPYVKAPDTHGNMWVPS

tested on | test | test system | conditions | measurement | result | Compound
– | – | male CD-1 mouse, plasma | oral, 50 mg/kg | half-life | 96 min | COc1cnc2cccc(N3CCc4c(cc(Cn5ccnc5)cc4-c4cn(C)nc4C(F)(F)F)C3=O)c2c1
– | – | female C57BL/6 mouse, serum | subcutaneous, 100 mg/kg | half-life | 60 min | COc1cccc2c(N3CCC(CCP(=O)(O)O)CC3)ncnc12
TDP1 | enzyme activity, inhibitor | – | 100 µM, unpurified compound | inhibition | 24% | O=C(O)c1ccc(Nc2c(-c3ccccc3)nc3ccc(CON=Cc4ccc(-c5nc6ccccc6s5)o4)cn23)cc1
– | – | C57BL/6 mouse, blood | intravenous, 0.5 mg/kg | half-life | 36.1 min | Cn1ccc(-c2cc(Cl)c(Cl)c3[nH]c4c(c23)CN(C(=O)CO)CC4)n1
– | metabolic stability | rat, liver microsomes | – | half-life | 46 min | CN(C)C(=O)c1cccc(N2Cc3cn(Cc4ccccc4F)nc3C2)c1
– | – | female nude mouse, plasma | oral, 30 mg/kg, single dose | half-life | 162 min | Cc1cc(NC(=O)[C@H](O)c2cc(F)cc(F)c2)ccc1-c1cnc(N)c(C(=O)NC(C)C)c1
– | metabolic stability | rat, liver microsomes | – | half-life | 2.2 min | Cc1ccc(CNc2nc3c(cnn3C(C)(C)C)c(=O)n2Cc2cccc(F)c2)cn1
TDP1 | enzyme activity, inhibitor | – | 100 µM, unpurified compound | inhibition | 35.5% | COc1cc(Br)ccc1C=NOCc1ccc2nc(-c3ccccc3)c(Nc3ccc(C(=O)O)cc3)n2c1
– | metabolic stability | rat, liver microsomes | – | half-life | 8 min | CN(C)C(=O)c1cccc(N2Cc3cnn(Cc4ccc(F)cc4)c3C2)c1
– | – | ICR mice, Streptococcus pneumoniae ATCC 49169 infected, immunocompromised, blood | intravenous, 16 mg/kg/day twice daily | half-life | 505 min | C=C(NC(=O)c1csc(-c2nc3c(cc2O)-c2nc(cs2)C(=O)NC(C(C)O)C(=O)NC(=C(C)OC)c2nc(cs2)C(=O)NC2c4nc(cs4)C(=O)NC(COC(=O)c4c5c6c(cccc6n4O)COC(=O)C(OC4CC(C)(O)C(N(C)C)C(C)O4)C2OC5)c2nc-3cs2)n1)C(N)=O (stereo not drawn)
– | metabolic stability | rat, liver microsomes | – | half-life | 22 min | CN(C)C(=O)c1cccc(N2Cc3cn(Cc4cc(Cl)cc(Cl)c4)nc3C2)c1
Uncharacterized protein (Trypanosoma brucei brucei, UniProt Q386Q8) | inhibitor, coupled colorimetric | Trypanosoma brucei | – | IC50 | > 100 µM | COc1ccc(C(=O)CC2(O)C(=O)Nc3c(Br)cc(C)cc32)cc1 (stereo not drawn)

Repeated from above:
tested on | test | test system | conditions | measurement | result | Compound
Uncharacterized protein (Trypanosoma brucei brucei, UniProt Q386Q8) | inhibitor, coupled colorimetric | Trypanosoma brucei | – | IC50 | > 100 µM | COc1ccc(C(=O)CC2(O)C(=O)Nc3c(Br)cc(C)cc32)cc1 (stereo not drawn)
